Assay results collected from several papers.
Protocols differ between the studies behind these lines. ± gives the spread as reported.
Method: steady-state kinetics
B1: Pck1 (Rattus norvegicus, UniProt P07379); chain MPPQLHNGLDFSAKVIQGSLDSLPQEVRKFVEGNAQLCQPEYIHICDGSEEEYGRLLAHMQEEGVIRKLKKYDNCWLALTDPRDVARIESKTVIITQEQRDTVPIPKSGQSQLGRWMSEEDFEKAFNARFPGCMKGRTMYVIPFSMGPLGSPLAKIGIELTDSPYVVASMRIMTRMGTSVLEALGDGEFIKCLHSVGCPLPLKKPLVNNWACNPELTLIAHLPDRREIISFGSGYGGNSLLGKKCFALRIASRLAKEEGWLAEHMLILGITNPEGKKKYLAAAFPSACGKTNLAMMNPTLPGWKVECVGDDIAWMKFDAQGNLRAINPENGFFGVAPGTSVKTNPNAIKTIQKNTIFTNVAETSDGGVYWEGIDEPLAPGVTITSWKNKEWRPQDEEPCAHPNSRFCTPASQCPIIDPAWESPEGVPIEGIIFGGRRPAGVPLVYEALSWQHGVFVGAAMRSEATAAAEHKGKVIMHDPFAMRPFFGYNFGKYLAHWLSMAHRPAAKLPKIFHVNWFRKDKNGKFLWPGFGENSRVLEWMFGRIEGEDSAKLTPIGYVPKEDALNLKGLGDVNVEELFGISKEFWEKEVEEIDKYLEDQVNADLPYEIERELRALKQRISQM
B2: tmcA (Escherichia coli, UniProt P76562); chain MAELTALHTLTAQMKREGIRRLLVLSGEEGWCFEHTLKLRDALPGDWLWISPRPDAENHCSPSALQTLLGREFRHAVFDARHGFDAAAFAALSGTLKAGSWLVLLLPVWEEWENQPDADSLRWSDCPDPIATPHFVQHLKRVLTADNEAILWRQNQPFSLAHFTPRTDWYPATGAPQPEQQQLLKQLMTMPPGVAAVTAARGRGKSALAGQLISRIAGRAIVTAPAKASTDVLAQFAGEKFRFIAPDALLASDEQADWLVVDEAAAIPAPLLHQLVSRFPRTLLTTTVQGYEGTGRGFLLKFCARFPHLHRFELQQPIRWAQGCPLEKMVSEALVFDDENFTHTPQGNIVISAFEQTLWQSDPETPLKVYQLLSGAHYRTSPLDLRRMMDAPGQHFLQAAGENEIAGALWLVDEGGLSQQLSQAVWAGFRRPRGNLVAQSLAAHGNNPLAATLRGRRVSRIAVHPARQREGTGRQLIAGALQYTQDLDYLSVSFGYTGELWRFWQRCGFVLVRMGNHREASSGCYTAMALLPMSDAGKQLAEREHYRLRRDAQALAQWNGETLPVDPLNDAVLSDDDWLELAGFAFAHRPLLTSLGCLLRLLQTSELALPALRGRLQKNASDAQLCTTLKLSGRKMLLVRQREEAAQALFALNDVRTERLRDRITQWQLFH
B3: Ma-WS/DGAT G25V (Marinobacter nauticus); chain MTPLNPTDQLFLWLEKRQQPMHVGVLQLFSFPEGAPDDYVAQLADQLRQKTEVTAPFNQRLSYRLGQPVWVEDEHLDLEHHFRFEALPTPGRIRELLSFVSAEHSHLMDRERPMWEVHLIEGLKDRQFALYTKVHHSLVDGVSAMRMATRMLSENPDEHGMPPIWDLPCLSRDRGESDGHSLWRSVTHLLGLSGRQLGTIPTVAKELLKTINQARKDPAYDSIFHAPRCMLNQKITGSRRFAAQSWCLKRIRAVCEAYGTTVNDVVTAMCAAALRTYLMNQDALPEKPLVAFVPVSLRRDDSSGGNQVGVILASLHTDVQEAGERLLKIHHGMEEAKQRYRHMSPEEIVNYTALTLAPAAFHLLTGLAPKWQTFNVVISNVPGPSRPLYWNGAKLEGMYPVSIDMDRLALNMTLTSYNDQVEFGLIGCRRTLPSLQRMLDYLEQGLAELELNAGL
B4: Paox H64Q (Mus musculus, UniProt Q8C0L6); chain MAFPGPRVLVVGSGIAGLGAAQKLCSHRAAPHLRVLEATASAGGRIRSERCFGGVVELGAHWIQGPSQDNPVFQLAAEFGLLGEKELSEENQLVDTGGHVALPSMIWSSSGTSVSLELMTEMARLFYGLIERTREFLNESETPMASVGEFLKKEISQQVASWTEDDEDTRKRKLAILNTFFNIECCVSGTHSMDLVALAPFGEYTVLPGLDCILAGGYQGLTDRILASLPKDTVAFDKPVKTIHWNGSFQEAAFPGETFPVLVECEDGARLPAHHVIVTVPLGFLKEHQDTFFEPPLPAKKAEAIKKLGFGTNNKIFLEFEEPFWEPDCQFIQVVWEDTSPLQDTALSLQDTWFKKLIGFLVQPSFESSHVLCGFIAGLESEFMETLSDEEVLLSLTQVLRRVTGNPQLPAAKSVRRSQWHSAPYTRGSYSYVAVGSTGDDLDLMAQPLPEDGTGTQLQVLFAGEATHRTFYSTTHGALLSGWREADRLVSLWDSQVEQSRPRL
B5: PUT2 (Saccharomyces cerevisiae, UniProt P07275); chain MLSARCLKSIYFKRSFSQLGHIKPPKHIRNEPVKPFRNIDLKDWDLLRASLMKFKSSSLEVPLVINGERIYDNNERALFPQTNPANHQQVLANVTQATEKDVMNAVKAAKDAKKDWYNLPFYDRSAIFLKAADLISTKYRYDMLAATMLGQGKNVYQAEIDCITELSDFFRYYVKYASDLYAQQPVESADGTWNKAEYRPLEGFVYAVSPFNFTAIAANLIGAPALMGNTVVWKPSQTAALSNYLLMTVLEEAGLPKGVINFIPGDPVQVTDQVLADKDFGALHFTGSTNVFKSLYGKIQSGVVEGKYRDYPRIIGETGGKNFHLVHPSANISHAVLSTIRGTFEFQGQKCSAASRLYLPESKSEEFLSDMFGILQSQNVVPMNTSASPISGGNLRGFMGPVIHEQSFDKLVKVIEDAKKDPELEILYGGQYDKSQGWFVGPTVIKAKRPDHPYMSTEFFGPILTVYEYPDTEFNEICDIIDNTSQYALTGAIFAKDRKAIEYADEKLKFSAGNFYINDKCTGAVVSQQWFGGARMSGTDDKAGGPNILSRFVSIRNTKENFYELTDFKYPSNYE
B6: protein (UniProt A0A4Y6I0S2); chain MTFEEKPMKFDGLDIEGVAFAPSVAALGSAKPLVLGGAGDRGLEINGNYIKFTAIGIYIEDGIIPHLSSKLSGKTVLELCEKDLLFEEVIYAPFEKLVRVVFIAPLTGIQYSEKVLERISVQALYTDIKEEHKQQFLEIFKGESFPPQSSAILSFSKEGLKVAFSKGDDVPAKAVGTIENARFADAVLGTIIWRDGVSPAAKVSLAERVSKYLQLGPSDGLASVPQSK
B7: protein F222G (Planktothrix agardhii, UniProt F5B6Z0); chain MIVNVIQKDRLKEQKLQFIRNHQQAFDVEPIYPLPLFEDFVTSIEGDCSLEASCKIESDKLIASRFLLFFEDKTQEWQKYLHQSLTFFGLVENRVGVKINYSLLQQFLGSSFDFSKVTVLSAGIDLRNNLAESSLKMHIRIKDYPEKLDKAFALSDGAADGNYLKDFVNLIGFDFYFNGKSEIEIYAEVQEDDFFKPEINNLVWQHFPKTALQPLKASSLFGTGLSKANNNPVLYYHLKNRQDLTNYFKLNDTAQRVHSFYQHQDILPYMWVGTAQKELEKTRIENIRLYYYKSFKMESN
B8: trypsin (Saccharopolyspora erythraea, UniProt Q54137); chain IVGGEDANVQDHPFTVALVTPDGQQFCGGTLAAPNKVVTAAHCTVGSQPADINVVSGRTVMSSNEGTVSKVTNVWVHPEYQDAAKGFDVSVLTLEAPVKEAPIELAKADDAGYAPDTAATILGWGNTSEGGQQADHLQKATVPVNSDDTCKQAYGEYTPDAMVCAGVPEGGVDTCQGDSGGPMVVNNKLIGVTSWGEGCARPGKPGVYARVGAYYDVLMEQINAGAVSAR
B9: Saccharopine reductase Y99F (Saccharomyces cerevisiae, UniProt P38999); chain MGKNVLLLGSGFVAQPVIDTLAANDDINVTVACRTLANAQALAKPSGSKAISLDVTDDSALDKVLADNDVVISLIPYTFHPNVVKSAIRTKTDVVTSSFISPALRELEPEIVKAGITVMNEIGLDPGIDHLYAVKTIDEVHRAGGKLKSFLSYCGGLPAPEDSDNPLGYKFSWSSRGVLLALRNSAKYWKDGKIETVSSEDLMATAKPYFIYPGYAFVCYPNRDSTLFKDLYHIPEAETVIRGTLRYQGFPEFVKALVDMGMLKDDANEIFSKPIAWNEALKQYLGAKSTSKEDLIASIDSKATWKDDEDRERILSGFAWLGLFSDAKITPRGNALDTLCARLEELMQYEDNERDMVVLQHKFGIEWADGTTETRTSTLVDYGKVGGYSSMAATVGYPVAIATKFVLDGTIKGPGLLAPYSPEINDPIMKELKDKYGIYLKEKTVA
B10: enzyme (Comamonas testosteroni, UniProt B7WQT1); chain MMTHEENELLCRVEGDAPMGRLMRRHWTPICLVEEVGEPDGTPVKARAFGEDLVVFRDSEGRVGVMDEYCPHRRASLVYGRNEEGGLRCLYHGWKMDVDGNVLEMASEPAASGMVDKVKHTAYPTQEWAGMVWAYMGPKETMPEFLPPAWAPTADTRVSIAKVLLPCNWAQILEGAIDSAHSSSLHSSDMVPARVDGAKATDKTWLRPSTDKAPRMQVQRTGYGFRYAALRRPLSNAAENDYVRSTVFVAPATALIPPNNLYNVANINVPMDDTNTAFYFIAWGHPSQTPETETWRKFLRQTVGVDLDQNYRPLRNEANKFWQDRNAMKAGNFTGITGFPNQDVAMWLTMGPIADRTHDRLGASDLAIVEFRKQMLDAVKAFEQGAPAIGTGVEAATPTVCSFQAIVPKTTDWRTYDAHYVWLDGQDRPEFEPSYSVKS
B11: protein (Sinorhizobium meliloti, UniProt Q92WA4); chain MNYFRNDFRGTLFGTNEATDSLRRRSLQKRILVTGGAGFLGSHLCELLLGAGHEVICLDNFSTGLRRNIAPLKRFDTFRVIAHDVVEPIDLEVDEIYNLACPASPPHYQADPIQTTKTCVIGSLNLLDLAARRGARIFQASTSEIYGDPHVHPQVESYWGNVNPFGPRSCYDEGKRCAETLFFDFHKSHGVEIKIVRIFNTYGPRMRPDDGRVVSNFIVQALKGEDITIYGDGSQTRSFCFVEDLIDGFVRLMASPPSLTGPVNLGNPAEFTIGELAEEVIRLTGSRSKIVRRPLPVDDPRQRRPDISLATEELGWRPKVNLAEGLAHTIRYFDDLLSRSMRESAELV
Chain of UniProt P77212 (whole entry, looked up): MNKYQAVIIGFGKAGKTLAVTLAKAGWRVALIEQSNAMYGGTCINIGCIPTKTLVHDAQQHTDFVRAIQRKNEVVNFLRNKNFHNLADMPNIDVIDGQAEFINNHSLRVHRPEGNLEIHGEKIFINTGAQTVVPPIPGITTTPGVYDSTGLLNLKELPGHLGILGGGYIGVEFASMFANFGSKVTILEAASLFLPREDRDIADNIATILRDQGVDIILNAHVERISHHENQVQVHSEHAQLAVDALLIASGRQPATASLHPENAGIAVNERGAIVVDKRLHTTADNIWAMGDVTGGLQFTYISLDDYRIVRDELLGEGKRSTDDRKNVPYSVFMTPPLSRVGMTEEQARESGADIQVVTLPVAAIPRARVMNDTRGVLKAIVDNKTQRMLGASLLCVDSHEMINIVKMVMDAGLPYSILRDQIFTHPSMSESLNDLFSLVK
Chain of UniProt O95674 (whole entry, looked up): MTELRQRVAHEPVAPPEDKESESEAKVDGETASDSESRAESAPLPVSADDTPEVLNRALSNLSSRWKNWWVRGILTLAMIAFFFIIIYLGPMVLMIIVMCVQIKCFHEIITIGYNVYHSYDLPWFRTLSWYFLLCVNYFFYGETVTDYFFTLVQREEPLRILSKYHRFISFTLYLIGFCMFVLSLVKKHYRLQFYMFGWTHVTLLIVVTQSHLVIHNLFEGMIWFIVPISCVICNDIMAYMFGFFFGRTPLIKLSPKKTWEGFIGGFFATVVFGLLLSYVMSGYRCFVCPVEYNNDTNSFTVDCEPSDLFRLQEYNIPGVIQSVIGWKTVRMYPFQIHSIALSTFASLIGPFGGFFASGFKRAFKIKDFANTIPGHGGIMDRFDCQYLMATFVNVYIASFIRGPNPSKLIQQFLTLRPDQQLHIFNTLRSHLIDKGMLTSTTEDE

Molecule | substrate | pH | temperature | setting | with | kcat
B1 (Pck1) | O=C(O)CC(=O)C(=O)O | pH 7.5 | 25 °C | – | OAA, GTP | 54 ± 0.2 s⁻¹
B2 (tmcA) | Nc1nc2c(ncn2[C@@H]2O[C@H](COP(=O)(O)OP(=O)(O)OP(=O)(O)O)[C@@H](O)[C@H]2O)c(=O)[nH]1 | pH 7.8 | – | – | – | 0.0252 s⁻¹
B3 (Ma-WS/DGAT G25V) | CCCCCC(=O)SCCNC(=O)CCNC(=O)[C@H](O)C(C)(C)COP(=O)(O)OP(=O)(O)OC[C@H]1O[C@@H](n2cnc3c(N)ncnc32)[C@H](O)[C@@H]1OP(=O)(O)O | pH 7.5 | 25 °C | NaCl 300 mM, lower limit, not saturable, apparent | 1-hexanol 4 mM | > 0.09 s⁻¹
B4 (Paox H64Q) | CC(=O)NCCCNCCCCNCCCN | pH 10 | 30 °C | – | – | 4.5 ± 0.2 s⁻¹
rclA (Escherichia coli, UniProt P77212) | N#CSO | pH 7.4 | – | apparent | – | 180 s⁻¹
B5 (PUT2) | O=C(O)[C@@H]1CCC=N1 | pH 7.5 | 20 °C | – | – | 1.5 ± 0.3 s⁻¹
protein I23F/S203N/S29F (Manduca sexta, UniProt Q8I8Y1) | Oc1ccc(O)cc1 | pH 7 | – | – | – | 0.733 ± 0.045 s⁻¹
B6 (protein) | O=C(/C=C/c1ccc(O)cc1)c1c(O)cc(O)cc1O | – | – | – | – | 154 ± 11.7 s⁻¹
B7 (protein F222G) | CC(C)=CCOP(=O)(O)OP(=O)(O)O | – | – | – | tri-Tyr peptide acceptor | 0.0192 ± 0.0015 s⁻¹
CDS2 (Homo sapiens, UniProt O95674) | CCCCC/C=C\C/C=C\C/C=C\C/C=C\CCCC(=O)O[C@H](COC(=O)CCCCCCCCCCCCCCCCC)COP(=O)(O)O | pH 8 | – | not purified | – | 8 ± 0.3 s⁻¹
enzyme (Corynebacterium glutamicum, UniProt Q8NT37) | C=C(C)CCO[P@@](=O)(O)OP(=O)(O)O | pH 7.6 | 37 °C | – | – | 0.01 s⁻¹
B8 (trypsin) | NCCCC[C@H](NC(=O)c1ccccc1)C(=O)Nc1ccc([N+](=O)[O-])cc1 | pH 8 | 25 °C | – | – | 1.04 ± 0.02 s⁻¹
B9 (Saccharopine reductase Y99F) | NC(=O)c1ccc[n+]([C@@H]2O[C@H](COP(=O)(O)OP(=O)(O)OC[C@H]3O[C@@H](n4cnc5c(N)ncnc54)[C@H](OP(=O)(O)O)[C@@H]3O)[C@@H](O)[C@H]2O)c1 | pH 9 | 25 °C | – | saccharopine | 0.29 ± 0.01 s⁻¹
AphC (Rhodococcus jostii, UniProt Q0S9X1) | Cc1ccc(O)c(O)c1 | pH 8 | 25 °C | apparent | O2 | 0.293 s⁻¹
B10 (enzyme) | O=C(O)c1ccccc1C(=O)O | pH 8 | 25 °C | apparent | – | 2.1 ± 0.1 s⁻¹
B11 (protein) | O=C(O)[C@H]1O[C@H](OP(=O)(O)OP(=O)(O)OC[C@H]2O[C@@H](n3ccc(=O)[nH]c3=O)[C@H](O)[C@@H]2O)[C@H](O)[C@@H](O)[C@@H]1O | pH 7.6 | 37 °C | – | NAD+ 1 mM | 1.7 ± 0.1 s⁻¹

For quick reference, copied from above:
Molecule | substrate | pH | temperature | setting | with | kcat
B7 (protein F222G) | CC(C)=CCOP(=O)(O)OP(=O)(O)O | – | – | – | tri-Tyr peptide acceptor | 0.0192 ± 0.0015 s⁻¹
